# Measured values from different studies.
# Each line is one published result; not all experiments were run side by side. ± marks the error that the study gave.
SMILES,assay,test system,conditions,scale,quantity,result
COC(=O)C[C@](O)(CCCC(C)(C)OC(C)=O)C(=O)O[C@@H]1C(OC)=C[C@]23CCCN2CCc2cc4c(cc2[C@H]13)OCO4,,"CD1 mouse, heart","oral, 1 mg/kg, 8 h, below quantification limit 1.00 ng/mL",,tissue concentration,not detected
COc1ccc(C)cc1NC(=O)OC1CC2CCCC(C1)N2Cc1ccc(CC[18F])cc1 (centres unmarked),,"BALB/c mice, EMT6 tumour",30 min,baseline: tumour over lung,tumour to tissue ratio,0.22
CC(C)C[C@H](NC(=O)[C@H](CCCCN)NC(=O)[C@H](C)NC(=O)[C@H](CC(C)C)NC(=O)[C@H](CCCCN)NC(=O)[C@H](CCCCN)NC(=O)[C@H](C)NC(=O)[C@H](CC(C)C)NC(=O)[C@H](CCCCN)NC(=O)[C@H](C)NC(=O)[C@H](CC(C)C)NC(=O)[C@H](CCCCN)NC(=O)[C@H](Cc1c[nH]cn1)NC(=O)CNC(=O)CN)C(=O)N[C@@H](C)C(=O)N[C@@H](CCCCN)C(N)=O,haemolysis,human red blood cells,1 h,,HD10,4 µM
O=C([O-])C[N+]12CC(=O)[O][Re-2]1[O]P(=O)([O-])C2.[C-]#[O+].[C-]#[O+].[C-]#[O+] (centres unmarked),HPLC,aqueous solution,"1 d, pH 1, room temperature",,isomer fraction at equilibrium,26%
CC(C)(CCCC/C=C/CCCCCC(C)(C)C(=O)O)C(=O)O,,"beagle dog, plasma","360 mg/kg, NOAEL dose, long-term GLP toxicity",,AUC(0-24 h),2470 µg·h/mL
[2H]C([2H])([2H])C([2H])([2H])C([2H])([2H])OC(C(=O)OC1CCNCC1)(c1ccccc1)c1ccccc1,item: C-reactive protein increased,healthy Japanese male,"oral, 12 mg once daily, 16 days",,adverse events,14.3%
CC(C)C[C@@H]1NC(=O)[C@H](CCCNC(=N)N)NC(=O)[C@H](CCCCN)NC(=O)[C@H](CC(=O)O)NC(=O)[C@H](CCCCN)NC(=O)[C@@H](CO)NC1=O,,C57BL/6J mice,"ip, up to 10 µg/g, four weeks, single and repeated doses",,acute and chronic toxicity,not toxic
CC[C@H](C)C(=O)N1CCC(NC(=O)Nc2ccc(OC(F)(F)F)c(F)c2)CC1,,"human, plasma","oral, 8 mg, single dose, fasted, healthy volunteers, tablet",,half-life,66.9 h
N=C(N)NCCC[C@@H]1NC(=O)[C@H](Cc2c[nH]c3ccccc23)NC(=O)[C@@H](CC2CCCCC2)NC(=O)[C@@H]2CCCN2C(=O)[C@@H](NC(=O)CCc2ccccc2)CCCNC1=O,,C57BL/6J mice,"subcutaneous, 1 mg/kg daily, up to 5 days",,toxicity,not toxic
N=C(N)NCc1ccc(C(=O)NCCCC[C@H](NC(=O)N[C@@H](CCC(=O)O)C(=O)O)C(=O)O)cc1[211At],,"SCID mouse, PC-3 xenografts, spleen",21 h,,tissue uptake,0.93 ± 0.37 %ID/g
Cc1ccc(C(C)C)cc1.[Cl][Ru+].[O-]c1ccccc1C=NCCNc1ccnc2cc(Cl)ccc12,shake-flask method,water/n-octanol,pH 4.9,,distribution coefficient D,0.4 ± 0.02
CSCC[C@@H]1NC(=O)[C@@H]2CSSC[C@H](NC(=O)[C@H](CO)NC(=O)[C@H](C)N)C(=O)N[C@@H](CCCNC(=N)N)C(=O)N[C@@H]([C@@H](C)O)C(=O)N3CCC[C@H]3C(=O)N[C@@H](CCCCN)C(=O)N[C@@H](CC(=O)O)C(=O)N[C@H]3CSSC[C@H](NC(=O)[C@H](CCCCN)NC(=O)[C@H](CCCNC(=N)N)NC(=O)[C@H](CC(N)=O)NC1=O)C(=O)N[C@@H](CCCCN)C(=O)N[C@H]1CSSC[C@H](NC(=O)[C@@H]4CCCN4C(=O)[C@H](CC(=O)O)NC(=O)[C@H](C)NC3=O)C(=O)N[C@@H](C)C(=O)N[C@@H](CCCCN)C(=O)N[C@@H](CCC(=O)O)C(=O)N[C@@H]([C@@H](C)O)C(=O)NCC(=O)N[C@@H](CSSC[C@@H](C(N)=O)NC(=O)[C@H](CCCNC(=N)N)NC(=O)[C@H](CC(N)=O)NC1=O)C(=O)N1CCC[C@H]1C(=O)N[C@@H](Cc1ccc(O)cc1)C(=O)NCC(=O)N[C@@H](CCCCN)C(=O)N2,,"DA rat pristane-induced arthritis, serum","subcutaneous, 0.1 mg/kg single dose at onset, 21 days",,Cholesterol,79.4 mg/dL
CCNC(=O)c1noc(-c2cc(C(C)C)c(O)cc2O)c1NC(=O)CCN1CCOCC1,,"athymic nude mice, MV4-11 xenograft","intravenous or intraperitoneal, 200 mg/kg",,tolerability,not toxic
CN(C)C(CNC(=O)Nc1cc(C(F)(F)F)ccc1N1CCOCC1)c1ccncc1 (centres unmarked),,"mouse, serum","intraperitoneal, 180 mg/kg single dose",,serum magnesium,2.6 mg/dL
C/C=C/C=C/C/C=C/CCCCCCCc1cccc(O)c1O,,"female Kunming mice, tumour-bearing, spleen","intravenous, 10 mg/kg, 1 h",,tissue concentration,10500 ± 1390 ng/g
CN[C@](C)(C[18F])C(=O)O,,SCID mouse U87 xenograft,30 min post injection,,tumour uptake,4.8 ± 0.9 %ID/g
C[C@H](NCc1ccc(-c2ccc(C(F)(F)F)cc2)cc1)C(N)=O,,"Sprague-Dawley rat, plasma","oral, 10 mg/kg",,bioavailability,> 100%
COc1ccc(NC(=O)Cn2c(=O)c3ccccc3n(CC(=O)Nc3cc([125I])c(OC)cc3OC)c2=O)cc1,,"rat, blood","intravenous, 5 min",,tracer uptake,0.19 %ID/g
CC(C)C[C@H](NC(=O)[C@H](CCCCN)NC(=O)[C@H](CCC(=O)O)NC(=O)[C@H](C)NC(=O)[C@@H](NC(=O)[C@H](CCCCN)NC(=O)[C@H](CC(=O)O)NC(=O)[C@H](Cc1ccc(O)cc1)NC(=O)[C@H](Cc1ccccc1)NC(=O)[C@H](C)NC(=O)[C@H](CCCCN)NC(=O)[C@H](CC(C)C)NC(=O)[C@H](Cc1c[nH]c2ccccc12)NC(=O)[C@@H](N)CC(=O)O)C(C)C)C(=O)N[C@@H](CCCCN)C(=O)N[C@@H](CCC(=O)O)C(=O)N[C@@H](C)C(=O)N[C@@H](Cc1ccccc1)C(=O)N1CCC[C@H]1C(=O)N[C@@H](CC(=O)O)C(=O)N[C@@H](Cc1c[nH]c2ccccc12)C(=O)N[C@@H](C)C(=O)N[C@@H](CCCCN)C(=O)N[C@@H](C)C(=O)N[C@@H](C)C(=O)N[C@@H](Cc1ccc(O)cc1)C(=O)N[C@@H](CC(=O)O)C(=O)N[C@@H](CCCCN)C(=O)N[C@@H](C)C(=O)N[C@@H](C)C(=O)N[C@@H](CCC(=O)O)C(=O)N[C@@H](CCCCN)C(=O)N[C@@H](C)C(=O)N[C@@H](CCCCN)C(=O)N[C@@H](CCC(=O)O)C(=O)N[C@@H](C)C(=O)N[C@@H](C)C(=O)O,,"cynomolgus monkey male, plasma","intravenous infusion, 25 mg/kg every other day, day 27",,Cmax,470 µg/mL
CN(C)c1ccc(C(=O)NCCCCN2CCN(c3ccccc3O[11CH3])CC2)cc1,,"male Sprague Dawley rat, lung, liver, kidney, muscle, heart","concentration not given, 30 min, together with: ciclosporin",baseline: untreated,peripheral organ uptake,no effect
[11CH3]n1c(=O)n(CCCO)c(=O)c2c1nc(Oc1cccc(OC(F)(F)F)c1)n2Cc1ccc(Cl)cc1,ex vivo biodistribution,"Sprague Dawley rat, fat",30 min post injection,,tracer uptake,0.72 ± 0.05 %ID/g
CC(C)[C@H](NC(=O)CNC(=O)[C@H](CCC(N)=O)NC(=O)[C@H](C)N)C(=O)O,,human,"concentration not given, single dose, all dose groups",,subjects with adverse event,25%
CC[C@H](C)[C@H](NC(=O)[C@H](Cc1ccccc1)NC(=O)[C@H](CCC(N)=O)NC(=O)[C@H](CCSC)NC(=O)[C@@H](NC(=O)[C@H](CCC(N)=O)NC(=O)[C@H](CCCCN)NC(=O)[C@H](Cc1ccc(O)cc1)NC(=O)[C@H](Cc1ccccc1)NC(=O)[C@H](CCCCN)NC(=O)[C@H](CCCCN)NC(=O)[C@@H](NC(=O)[C@H](Cc1ccccc1)NC(=O)[C@@H]1CCCN1C(=O)[C@H](Cc1c[nH]c2ccccc12)NC(=O)CNC(=O)[C@H](Cc1ccccc1)NC(=O)[C@H](CCCCN)NC(=O)[C@H](C)NC(=O)[C@@H](NC(=O)[C@H](CC(C)C)NC(=O)[C@H](CCCCN)NC(=O)[C@H](C)NC(=O)[C@H](CCCNC(=N)N)NC(=O)[C@H](C)NC(=O)CNC(=O)[C@@H](N)CCSC)C(C)C)[C@@H](C)CC)[C@@H](C)CC)C(=O)NCC(=O)N[C@@H](CCC(N)=O)C(=O)NCC(=O)N[C@@H](Cc1c[nH]c2ccccc12)C(=O)N[C@H](C(=O)N[C@H](C(=O)N[C@@H](CC(=O)O)C(=O)N[C@@H](CCC(N)=O)C(=O)N[C@H](C(=O)N[C@@H](CCC(=O)O)C(=O)N[C@@H](CCCCN)C(=O)N[C@@H](Cc1c[nH]c2ccccc12)C(=O)N[C@@H](CC(C)C)C(=O)N[C@@H](CCCCN)C(=O)N[C@@H](CCCNC(=N)N)C(=O)N[C@@H](Cc1c[nH]cn1)C(=O)O)[C@@H](C)CC)[C@@H](C)CC)[C@@H](C)O,"thermal unfolding, far-UV CD",10 mM sodium phosphate,"5-20 µM, pH 7.2",,Tm,44.6 ± 0.3 °C

# Excerpt of the above:
SMILES,assay,test system,conditions,scale,quantity,result
CC[C@H](C)[C@H](NC(=O)[C@H](Cc1ccccc1)NC(=O)[C@H](CCC(N)=O)NC(=O)[C@H](CCSC)NC(=O)[C@@H](NC(=O)[C@H](CCC(N)=O)NC(=O)[C@H](CCCCN)NC(=O)[C@H](Cc1ccc(O)cc1)NC(=O)[C@H](Cc1ccccc1)NC(=O)[C@H](CCCCN)NC(=O)[C@H](CCCCN)NC(=O)[C@@H](NC(=O)[C@H](Cc1ccccc1)NC(=O)[C@@H]1CCCN1C(=O)[C@H](Cc1c[nH]c2ccccc12)NC(=O)CNC(=O)[C@H](Cc1ccccc1)NC(=O)[C@H](CCCCN)NC(=O)[C@H](C)NC(=O)[C@@H](NC(=O)[C@H](CC(C)C)NC(=O)[C@H](CCCCN)NC(=O)[C@H](C)NC(=O)[C@H](CCCNC(=N)N)NC(=O)[C@H](C)NC(=O)CNC(=O)[C@@H](N)CCSC)C(C)C)[C@@H](C)CC)[C@@H](C)CC)C(=O)NCC(=O)N[C@@H](CCC(N)=O)C(=O)NCC(=O)N[C@@H](Cc1c[nH]c2ccccc12)C(=O)N[C@H](C(=O)N[C@H](C(=O)N[C@@H](CC(=O)O)C(=O)N[C@@H](CCC(N)=O)C(=O)N[C@H](C(=O)N[C@@H](CCC(=O)O)C(=O)N[C@@H](CCCCN)C(=O)N[C@@H](Cc1c[nH]c2ccccc12)C(=O)N[C@@H](CC(C)C)C(=O)N[C@@H](CCCCN)C(=O)N[C@@H](CCCNC(=N)N)C(=O)N[C@@H](Cc1c[nH]cn1)C(=O)O)[C@@H](C)CC)[C@@H](C)CC)[C@@H](C)O,"thermal unfolding, far-UV CD",10 mM sodium phosphate,"5-20 µM, pH 7.2",,Tm,44.6 ± 0.3 °C
CN[C@](C)(C[18F])C(=O)O,,SCID mouse U87 xenograft,30 min post injection,,tumour uptake,4.8 ± 0.9 %ID/g
